Results pooled from the literature.
A part holds a random share of what one study measured.
UniProt Q13131, sequence (whole entry, looked up): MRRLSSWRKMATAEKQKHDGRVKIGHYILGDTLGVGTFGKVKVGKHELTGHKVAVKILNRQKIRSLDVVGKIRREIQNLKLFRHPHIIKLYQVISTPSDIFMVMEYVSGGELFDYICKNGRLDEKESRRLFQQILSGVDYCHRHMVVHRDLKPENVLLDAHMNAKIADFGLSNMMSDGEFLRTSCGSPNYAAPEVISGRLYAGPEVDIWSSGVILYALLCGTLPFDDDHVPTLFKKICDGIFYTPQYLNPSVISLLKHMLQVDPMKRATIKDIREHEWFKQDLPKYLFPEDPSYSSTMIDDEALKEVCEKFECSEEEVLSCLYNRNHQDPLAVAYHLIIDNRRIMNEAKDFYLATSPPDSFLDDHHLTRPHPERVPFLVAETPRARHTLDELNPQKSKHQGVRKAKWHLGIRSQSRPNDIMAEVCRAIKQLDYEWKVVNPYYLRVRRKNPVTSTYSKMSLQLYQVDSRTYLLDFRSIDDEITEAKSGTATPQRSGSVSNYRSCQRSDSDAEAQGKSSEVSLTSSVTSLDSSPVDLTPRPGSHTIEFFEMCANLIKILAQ
UniProt Q9Y5S2, sequence (whole entry, looked up): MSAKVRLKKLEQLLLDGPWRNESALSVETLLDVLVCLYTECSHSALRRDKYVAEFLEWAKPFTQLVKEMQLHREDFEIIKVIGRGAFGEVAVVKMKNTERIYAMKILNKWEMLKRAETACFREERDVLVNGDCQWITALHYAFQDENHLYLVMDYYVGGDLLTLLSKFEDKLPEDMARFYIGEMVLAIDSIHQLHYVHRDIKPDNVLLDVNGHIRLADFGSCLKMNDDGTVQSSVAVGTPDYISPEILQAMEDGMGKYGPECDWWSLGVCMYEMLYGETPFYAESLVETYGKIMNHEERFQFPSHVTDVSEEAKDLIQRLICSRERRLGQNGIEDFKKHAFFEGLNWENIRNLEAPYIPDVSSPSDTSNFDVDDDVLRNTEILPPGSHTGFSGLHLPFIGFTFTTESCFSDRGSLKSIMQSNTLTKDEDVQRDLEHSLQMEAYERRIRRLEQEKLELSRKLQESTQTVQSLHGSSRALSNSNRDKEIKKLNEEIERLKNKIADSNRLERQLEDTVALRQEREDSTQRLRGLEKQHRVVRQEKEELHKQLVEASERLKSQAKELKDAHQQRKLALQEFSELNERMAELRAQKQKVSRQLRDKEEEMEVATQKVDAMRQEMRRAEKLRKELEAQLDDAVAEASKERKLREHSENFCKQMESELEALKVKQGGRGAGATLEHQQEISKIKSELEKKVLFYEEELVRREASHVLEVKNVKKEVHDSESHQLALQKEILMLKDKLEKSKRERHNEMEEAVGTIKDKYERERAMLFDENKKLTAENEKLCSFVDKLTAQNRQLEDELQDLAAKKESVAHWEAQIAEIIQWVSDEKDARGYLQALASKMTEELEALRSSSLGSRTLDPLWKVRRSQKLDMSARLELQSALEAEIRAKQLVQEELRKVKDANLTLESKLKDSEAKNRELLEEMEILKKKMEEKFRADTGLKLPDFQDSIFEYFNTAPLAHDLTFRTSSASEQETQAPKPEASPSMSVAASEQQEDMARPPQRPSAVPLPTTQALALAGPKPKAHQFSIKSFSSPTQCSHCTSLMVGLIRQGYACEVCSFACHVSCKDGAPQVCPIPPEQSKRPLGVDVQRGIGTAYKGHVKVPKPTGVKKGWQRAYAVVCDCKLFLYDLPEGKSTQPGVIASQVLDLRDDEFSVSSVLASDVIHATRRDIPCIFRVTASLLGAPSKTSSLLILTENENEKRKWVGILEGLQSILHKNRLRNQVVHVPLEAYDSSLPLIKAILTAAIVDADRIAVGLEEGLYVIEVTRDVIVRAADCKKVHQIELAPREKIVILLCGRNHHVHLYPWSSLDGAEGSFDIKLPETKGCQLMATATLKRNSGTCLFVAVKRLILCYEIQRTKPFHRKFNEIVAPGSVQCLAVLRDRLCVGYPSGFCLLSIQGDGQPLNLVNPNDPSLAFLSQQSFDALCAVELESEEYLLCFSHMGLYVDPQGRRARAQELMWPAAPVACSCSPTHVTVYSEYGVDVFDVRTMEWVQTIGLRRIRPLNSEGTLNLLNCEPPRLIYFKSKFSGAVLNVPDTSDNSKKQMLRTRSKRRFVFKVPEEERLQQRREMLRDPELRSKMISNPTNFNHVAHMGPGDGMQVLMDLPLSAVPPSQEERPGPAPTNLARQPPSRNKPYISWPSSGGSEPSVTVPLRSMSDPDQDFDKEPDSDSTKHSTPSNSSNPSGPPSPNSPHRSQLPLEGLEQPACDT
UniProt P04629, sequence (whole entry, looked up): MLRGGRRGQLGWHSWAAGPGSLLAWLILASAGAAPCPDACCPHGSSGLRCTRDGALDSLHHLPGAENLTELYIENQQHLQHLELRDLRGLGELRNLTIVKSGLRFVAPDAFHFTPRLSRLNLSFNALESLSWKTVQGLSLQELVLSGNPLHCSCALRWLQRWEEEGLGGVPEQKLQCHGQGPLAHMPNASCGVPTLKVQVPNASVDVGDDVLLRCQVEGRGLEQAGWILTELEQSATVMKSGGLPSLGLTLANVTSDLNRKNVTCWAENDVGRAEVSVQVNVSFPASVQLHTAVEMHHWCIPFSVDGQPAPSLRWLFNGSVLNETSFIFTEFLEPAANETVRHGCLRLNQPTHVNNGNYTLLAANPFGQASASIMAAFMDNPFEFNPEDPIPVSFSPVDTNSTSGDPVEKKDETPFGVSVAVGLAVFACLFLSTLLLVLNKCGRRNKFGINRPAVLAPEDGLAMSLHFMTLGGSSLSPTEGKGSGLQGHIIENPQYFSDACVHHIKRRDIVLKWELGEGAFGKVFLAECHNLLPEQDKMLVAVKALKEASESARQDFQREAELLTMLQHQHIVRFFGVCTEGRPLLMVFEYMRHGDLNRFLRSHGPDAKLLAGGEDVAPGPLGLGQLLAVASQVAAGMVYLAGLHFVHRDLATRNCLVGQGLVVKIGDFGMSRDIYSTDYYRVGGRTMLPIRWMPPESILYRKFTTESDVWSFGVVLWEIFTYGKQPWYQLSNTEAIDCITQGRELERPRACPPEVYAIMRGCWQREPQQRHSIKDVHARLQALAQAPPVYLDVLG
UniProt Q9NYL2, sequence (whole entry, looked up): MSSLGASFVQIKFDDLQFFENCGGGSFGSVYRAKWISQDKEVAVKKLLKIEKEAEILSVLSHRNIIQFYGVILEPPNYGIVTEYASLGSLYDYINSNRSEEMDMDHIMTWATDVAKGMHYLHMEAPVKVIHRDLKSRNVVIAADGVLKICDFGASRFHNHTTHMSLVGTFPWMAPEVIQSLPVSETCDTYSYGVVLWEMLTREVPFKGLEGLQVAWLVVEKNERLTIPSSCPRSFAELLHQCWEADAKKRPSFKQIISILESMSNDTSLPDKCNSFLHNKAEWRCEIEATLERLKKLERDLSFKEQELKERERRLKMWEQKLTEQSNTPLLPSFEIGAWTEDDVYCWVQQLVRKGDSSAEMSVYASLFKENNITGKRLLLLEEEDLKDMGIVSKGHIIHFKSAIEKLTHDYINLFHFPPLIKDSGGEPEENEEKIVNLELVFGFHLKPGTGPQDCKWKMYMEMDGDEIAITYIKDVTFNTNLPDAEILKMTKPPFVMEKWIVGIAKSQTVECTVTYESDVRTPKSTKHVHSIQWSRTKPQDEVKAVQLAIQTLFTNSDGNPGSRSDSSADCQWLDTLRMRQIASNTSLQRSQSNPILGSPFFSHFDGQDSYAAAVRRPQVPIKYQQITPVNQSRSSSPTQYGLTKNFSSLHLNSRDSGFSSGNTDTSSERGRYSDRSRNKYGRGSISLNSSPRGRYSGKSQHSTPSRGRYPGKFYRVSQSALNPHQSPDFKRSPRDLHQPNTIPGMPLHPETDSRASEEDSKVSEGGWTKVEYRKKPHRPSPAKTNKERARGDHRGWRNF

Block 1 — tested at: 1 µM
Structure (SMILES): COc1ccc2[nH]c3c4[nH]c5ccc(OC)cc5c4c4c(c3c2c1)C(=O)NC4=O
| target | assay | setting | how to read | remaining binding |
| --- | --- | --- | --- | --- |
| GRK2 (Homo sapiens, UniProt P25098) | competitive binding panel | – | reference: vehicle | 88% |
| TSSK3 (Homo sapiens, UniProt Q96PN8) | competitive binding panel | – | reference: vehicle | 89% |
| PRKD1 (Homo sapiens, UniProt Q15139) | competitive binding panel | – | reference: vehicle | 68% |
| NTRK1 (Homo sapiens, UniProt P04629) | competitive binding | TRKA | – | 40% |
| TGFBR2 (Homo sapiens, UniProt P37173) | competitive binding panel | – | reference: vehicle | 100% |
| WNK1 (Homo sapiens, UniProt Q9H4A3) | competitive binding panel | – | reference: vehicle | 91% |
| FLT3 (Homo sapiens, UniProt P36888) | competitive binding panel | – | reference: vehicle | 28% |
| PRKAA1 (Homo sapiens, UniProt Q13131) | competitive binding | AMPK-alpha1 | – | 44% |
| MAPK8 (Homo sapiens, UniProt P45983) | competitive binding | JNK1 | – | 82% |

Block 2 — tested at: 1 µM; reference: DMSO
SMILES: CCOc1cn(-c2ccc(F)cc2C)nc1C(=O)Nc1ccc(Oc2ccnc3cc(OC)c(OC)cc23)c(F)c1
| cell line | assay | setting | viability [%] |
| --- | --- | --- | --- |
| normal colon patient-derived organoid sample G | – | – | 20.7 |
| normal colon patient-derived organoid sample E | – | – | 72.7 |
| normal colon patient-derived organoids | CellTiter-Glo | average of five organoid lines | 80.8 |
| normal colon patient-derived organoid sample D | – | – | 97.4 |
| normal colon patient-derived organoid sample F | – | – | 104 |
| normal colon patient-derived organoid sample H | – | – | 109 |

Block 3 — action: inhibitor
Compound: Cc1nc(Nc2ncc(C(=O)Nc3c(C)cccc3Cl)s2)cc(N2CCN(CCO)CC2)n1
| target | setting | inhibition |
| --- | --- | --- |
| PKN1 (Homo sapiens, UniProt Q16512) | 10 µM | < 50% |
| MAP3K9 (Homo sapiens, UniProt P80192) | 1 µM | < 50% |
| CDC42BPA (Homo sapiens, UniProt Q5VT25) | 10 µM | 90% |
| CDC42BPB (Homo sapiens, UniProt Q9Y5S2) | 10 µM | 90% |
| BLK (Homo sapiens, UniProt P51451) | 10 µM | 95% |
| MAP3K20 (Homo sapiens, UniProt Q9NYL2) | 10 µM | 100% |
| MAST1 (Homo sapiens, UniProt Q9Y2H9) | 1 µM | < 50% |
| PAK1 (Homo sapiens, UniProt Q13153) | 1 µM | < 50% |
| MYLK (Homo sapiens, UniProt Q15746) | 10 µM | < 50% |
| STK17B (Homo sapiens, UniProt O94768) | 10 µM | < 50% |
| CAMK1G (Homo sapiens, UniProt Q96NX5) | 10 µM | < 50% |
| TEK (Homo sapiens, UniProt Q02763) | 10 µM | < 50% |
| FGFR3 (Homo sapiens, UniProt P22607) | 10 µM | < 50% |
| FGFR2 (Homo sapiens, UniProt P21802) | 10 µM | 84% |

Block 4 — effect on: enzyme activity; action: inhibitor; tested at: 0.5 µM; reference: control
Target: Serine/threonine-protein kinase ULK1 (ULK1, Homo sapiens, UniProt O75385)
UniProt O75385, sequence (whole entry, looked up): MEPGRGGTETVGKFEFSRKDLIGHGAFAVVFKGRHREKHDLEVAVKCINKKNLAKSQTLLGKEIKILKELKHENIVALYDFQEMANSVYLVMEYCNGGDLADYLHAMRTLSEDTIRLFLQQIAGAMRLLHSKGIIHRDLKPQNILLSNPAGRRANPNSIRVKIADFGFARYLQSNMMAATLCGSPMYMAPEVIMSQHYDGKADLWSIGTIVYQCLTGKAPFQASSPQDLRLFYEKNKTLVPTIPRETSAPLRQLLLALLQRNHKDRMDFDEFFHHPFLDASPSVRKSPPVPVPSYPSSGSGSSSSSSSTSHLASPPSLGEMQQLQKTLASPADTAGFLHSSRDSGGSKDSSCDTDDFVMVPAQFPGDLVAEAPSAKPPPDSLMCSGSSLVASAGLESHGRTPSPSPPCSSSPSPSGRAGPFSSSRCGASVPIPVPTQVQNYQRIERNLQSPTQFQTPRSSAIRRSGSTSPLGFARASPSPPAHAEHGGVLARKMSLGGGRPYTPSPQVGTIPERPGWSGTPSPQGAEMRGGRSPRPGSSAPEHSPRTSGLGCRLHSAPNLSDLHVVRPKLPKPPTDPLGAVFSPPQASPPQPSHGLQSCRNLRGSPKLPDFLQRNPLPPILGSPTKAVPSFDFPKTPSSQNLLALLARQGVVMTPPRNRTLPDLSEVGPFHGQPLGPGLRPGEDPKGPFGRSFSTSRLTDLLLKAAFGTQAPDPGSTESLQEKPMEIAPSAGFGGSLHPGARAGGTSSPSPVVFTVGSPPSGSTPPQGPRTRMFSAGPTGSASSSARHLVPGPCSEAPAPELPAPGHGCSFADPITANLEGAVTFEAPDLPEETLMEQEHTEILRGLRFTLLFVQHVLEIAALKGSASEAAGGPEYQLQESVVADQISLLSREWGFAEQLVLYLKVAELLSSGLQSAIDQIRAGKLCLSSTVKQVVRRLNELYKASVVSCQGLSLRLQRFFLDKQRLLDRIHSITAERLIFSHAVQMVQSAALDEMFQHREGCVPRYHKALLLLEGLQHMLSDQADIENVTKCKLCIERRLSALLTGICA
| Compound | remaining activity [%] |
| --- | --- |
| COc1cc2ncnc(Nc3cccc(Cl)c3)c2cc1OC | 84.7 |
| CN(C)C[C@H]1CCn2c(c(C3=C(c4cn(C)c5ccccc45)C(=O)NC3=O)c3ccccc32)C1 | 98.9 |
| CCN(CC)CCNC(=O)c1c(C)[nH]c(/C=C2\C(=O)Nc3ccc(F)cc32)c1C | 16.3 |
| c1ccc(-c2[nH]ncc2-c2ccnc3ccccc23)nc1 | 85.9 |
| COc1cc2ncnc(Nc3ccc(O)c(Br)c3)c2cc1OC | 87.2 |
| Cc1nc2cc3nc(-c4cccs4)cnc3cc2n1C | 84.6 |
| Cc1cn(-c2cc(NC(=O)c3ccc(C)c(Nc4nccc(-c5cccnc5)n4)c3)cc(C(F)(F)F)c2)cn1 | 101 |
| CCN(CC)C(=O)c1ccc(Nc2nc(OCC3CCCCC3)c3[nH]cnc3n2)cc1 | 77.7 |
| C[C@@H]1CCN(C(=O)CC#N)C[C@@H]1N(C)c1ncnc2[nH]ccc12 | 83 |
| N#C/C(=C\c1ccc(O)c(O)c1)C(=O)NCc1ccccc1 | 92.9 |
| Cn1nc2c3c(cccc31)C(=O)c1ccccc1-2 | 101 |
| O=C1C(Cl)=C(N2C(=O)CCC2=O)C(=O)c2ccccc21 | 107 |
| O=C1c2ccccc2-c2n[nH]c3cccc1c23 | 62.2 |
| CCOc1nc(NC(=O)Cc2cc(OC)ccc2OC)cc(N)c1C#N | 103 |
| Cc1cc2ncc(-c3ccccc3)nc2cc1C | 84.1 |
| Nc1cccc(-c2cc3c(Oc4cccc(O)c4)ncnc3[nH]2)c1 | 143 |
| COc1cc2c(cc1OC)-c1[nH]nc(Nc3cccc(F)c3)c1C2 | 103 |
| CN([C@@H](Cc1ccc(OS(=O)(=O)c2cccc3cnccc23)cc1)C(=O)N1CCN(c2ccccc2)CC1)S(=O)(=O)c1cccc2cnccc12 | 101 |
| O=C(NC(NC(=S)Nc1ccc(F)c([N+](=O)[O-])c1)C(Cl)(Cl)Cl)C(c1ccccc1)c1ccccc1 (centres unmarked) | 99.1 |
| CCN(CC)CCNC(=O)c1c(C)[nH]c(/C=C2\C(=O)Nc3ccc(Cl)cc32)c1C | 13.6 |
| N#Cc1c(NC(=O)c2cccc3ccccc23)sc2c1CCCC2 | 99.8 |
| O=c1cc(-c2cccc3c2Sc2ccccc2S3)oc(N2CCOCC2)c1 | 91.9 |
| c1ccc(-c2cnc(Nc3ccc(OCCN4CCCC4)cc3)s2)cc1 | 127 |
| Ic1cccc(CSc2nnc(-c3ccncc3)o2)c1 | 97.1 |

Repeated from above (block 2):
| cell line | assay | setting | viability [%] |
| --- | --- | --- | --- |
| normal colon patient-derived organoid sample H | – | – | 109 |
| normal colon patient-derived organoid sample F | – | – | 104 |
| normal colon patient-derived organoid sample E | – | – | 72.7 |
| normal colon patient-derived organoid sample D | – | – | 97.4 |
| normal colon patient-derived organoids | CellTiter-Glo | average of five organoid lines | 80.8 |
| normal colon patient-derived organoid sample G | – | – | 20.7 |
